# Published values gathered from unrelated publications.
# Numbered parts are unrelated; each lists some results of a single study.

# Sample 1
# Target: Histone acetyltransferase KAT6A, winged helix 1, GST fusion (KAT6A, Homo sapiens, UniProt Q92794, residues 1-85)
# Technique: protein binding microarray
# Form: double-stranded DNA, one strand shown
# Medium: in vitro
# Tested at: not given
# Setting: 8-mer, flanks averaged, mean of 2 arrays, mostly near background
# Baseline: not given
# Reading: higher = stronger binding
# Target sequence (chain): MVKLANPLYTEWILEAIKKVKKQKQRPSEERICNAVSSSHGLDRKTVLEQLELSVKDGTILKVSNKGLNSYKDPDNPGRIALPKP
Strand,E-score
TATTAAGA,-0.0953
ATGTTCGC,0.102
ACCTATTG,-0.048
ACCTCGGG,0.0819
GATATGCC,0.0416
TACCACTA,-0.142
CACCGGTG,0.0972

# Sample 2
# Target: Phosphate system positive regulatory protein PHO4, full length, GST-tagged (PHO4, Saccharomyces cerevisiae, UniProt P07270, residues 1-312)
# Technique: competition protein-binding microarray
# Form: double-stranded DNA, one strand shown
# Medium: in vitro
# Tested at: 2 µM
# Setting: whole 60-bp probe, lowest competitor level
# Added: Cbf1 competitor, 0.05 µM
# Reading: higher = stronger binding
# Constant ends, left off below: … GTCTTGATTCGCTTGACGCTGCTG
# Residues (chain): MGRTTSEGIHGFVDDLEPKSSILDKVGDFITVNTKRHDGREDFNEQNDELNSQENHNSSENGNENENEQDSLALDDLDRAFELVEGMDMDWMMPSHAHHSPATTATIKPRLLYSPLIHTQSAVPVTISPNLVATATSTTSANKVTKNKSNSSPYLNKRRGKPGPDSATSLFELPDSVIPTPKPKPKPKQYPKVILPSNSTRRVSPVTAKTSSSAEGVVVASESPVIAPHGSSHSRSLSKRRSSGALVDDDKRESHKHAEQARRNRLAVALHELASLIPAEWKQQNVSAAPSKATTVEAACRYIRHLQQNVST
Strand,fluorescence intensity [a.u.]
GTCTTGTCTCATTTTCACGTGTAGTTCCCCACTTCA,11000
CTTTCCCGATCTTTTCACGTGTACTTAGCACATTTG,13400
CCAGGCTTAGATTTTCATGTGAAAAGATAATGTGTA,3300
CATACCCAACCTTTTCACGTGTAATAAGATATTTGT,16600
TCGAGAGATAAAGTACATGTGCCTAGGTAAGCTGTA,9680

# Sample 3
# Target: Myc proto-oncogene protein, bHLH-zipper, MAX partner unstated (MYC, Homo sapiens, UniProt P01106, residues 368-449)
# Chain of UniProt P01106 (368-449, looked up): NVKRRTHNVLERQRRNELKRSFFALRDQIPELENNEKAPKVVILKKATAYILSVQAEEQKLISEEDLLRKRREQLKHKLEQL
# Technique: protein-binding microarray
# Form: double-stranded DNA, one strand shown
# Medium: in vitro
# Tested at: not given
# Setting: k-mer, scored over probes, only values ≥0.25
# Reading: higher = stronger binding
Strand,E-score
CGGCACCA,0.292
ATGGCGTG,0.367
ACATGCAT,0.385
CATATGGC,0.393
AAGCATGC,0.429
ACTCGTGG,0.418

# Mixed results
Molecule,target,test,test system,setting,scale,measurement,result
"PhoQ, residues 284 288 289 292 302 303 SVHLDV","PhoP, residues 12 14 15 18 19 QYFSL (Escherichia coli, UniProt P23836)","Sort-seq, item: YFP reporter",E. coli,"PhoQ-PhoP variant library, added: 10 µM Mg2+","baseline: high Mg2+ state, higher = stronger signaling",fold induction,2.8

# Excerpt of the above (sample 1):
Strand,E-score
TATTAAGA,-0.0953
ATGTTCGC,0.102
